Results from different studies.
Protocols differ between the studies behind these lines. ± marks the error that the study gave. ≈ marks a conversion by molar mass, not a printed value.
Organism: Mycobacterium tuberculosis
Strain: H37Rv

`Cc1ccc2nc(C)c(C(=O)NCc3ccc(C(F)(F)F)cc3)n2c1` has an MIC of 0.0113 ± 0.0025 µM (MABA; GAS medium).
The MIC of `NC[C@H]1OB(O)c2c(OCCO)cccc21` is reported as 0.79 µM (Alamar blue).
The MIC90 of `CCCCCCC1N=C(N)N=C(N)N1c1ccc(Cl)cc1.Cl` (racemic) is reported as 5.5 µM (microplate alamar blue; 7H12 medium).
With `COC(=O)C(O)=CC(=O)c1ccccc1Br` the MIC99 was 8 µM (≈ 2.28 µg/mL) (MABA; acetate carbon source).
The MIC90 of `CCCCCCCCCCCC1N=C(N)N=C(N)N1c1ccc(Cl)cc1.Cl` (racemic) is reported as 1.3 µM (microplate alamar blue; GAST medium, glycerol carbon source).
`CCCC/C=C/C(=O)N[C@@H](Cc1cc(F)cc(F)c1)C(=O)N[C@@H](COC(=O)[C@@H]1CCCN1C(C)=O)C(=O)OC` has an MIC of 0.78 µg/mL (added: 50 µg/mL verapamil).
For `Cc1ccc(F)c(C(=O)C=C(O)C(=O)OCc2ccccc2)c1Cl`, the MIC99 was less than 1 µM (MABA; acetate carbon source).
For `[2H]c1c(C([2H])([2H])[2H])c([2H])n2c(C(=O)NCc3ccc(C(C)(C)C)cc3)c(C)nc2c1[2H]`, the MIC was 0.0005 µM (MABA; GAS medium).
With `CCCCCCCCCC1N=C(N)N=C(N)N1c1ccc(Cl)cc1.Cl` (racemic) the MIC90 was 1.4 µM (microplate alamar blue; 7H12 medium).
The MIC99 of `O=C(OCc1ccccc1)C(O)=CC(=O)c1ccccc1Br` is reported as 8 µM (≈ 2.89 µg/mL) (MABA; dextrose carbon source).
With `[2H]c1c(C([2H])([2H])[2H])c([2H])n2c(C(=O)NCc3cccc(N(C)C)c3)c(C)nc2c1[2H]` the MIC was 0.111 ± 0.036 µM (MABA; 7H12 medium).

Some of these lines once more:
For `[2H]c1c(C([2H])([2H])[2H])c([2H])n2c(C(=O)NCc3ccc(C(C)(C)C)cc3)c(C)nc2c1[2H]`, the MIC was 0.0005 µM (MABA; GAS medium).
With `CCCCCCCCCC1N=C(N)N=C(N)N1c1ccc(Cl)cc1.Cl` (racemic) the MIC90 was 1.4 µM (microplate alamar blue; 7H12 medium).
